# Measurements from different studies.
# Each line is one published result; not all experiments were run side by side. Values joined by “and” are separate records of one study, mostly repeats; a detail may differ. ± gives the spread as reported.
# GUK1: GUK1 (Homo sapiens, UniProt Q16774)
# Chain of UniProt Q16774 (whole entry, looked up): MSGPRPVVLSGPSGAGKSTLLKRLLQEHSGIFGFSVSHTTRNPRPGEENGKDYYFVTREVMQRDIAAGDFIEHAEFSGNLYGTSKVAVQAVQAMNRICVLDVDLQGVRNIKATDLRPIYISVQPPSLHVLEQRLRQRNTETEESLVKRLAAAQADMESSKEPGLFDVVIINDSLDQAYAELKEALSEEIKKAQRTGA
# T1: DNA:RNA riboswitch, DNA extensions (Arabidopsis thaliana); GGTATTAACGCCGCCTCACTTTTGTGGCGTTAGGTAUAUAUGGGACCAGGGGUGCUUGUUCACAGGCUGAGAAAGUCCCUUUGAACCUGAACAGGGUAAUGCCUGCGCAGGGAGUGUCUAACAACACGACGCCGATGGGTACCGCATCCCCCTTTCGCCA
# T2: RNA aptamer; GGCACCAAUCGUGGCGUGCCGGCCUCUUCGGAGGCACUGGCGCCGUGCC
# Chain of UniProt P51575 (whole entry, unmodified, looked up): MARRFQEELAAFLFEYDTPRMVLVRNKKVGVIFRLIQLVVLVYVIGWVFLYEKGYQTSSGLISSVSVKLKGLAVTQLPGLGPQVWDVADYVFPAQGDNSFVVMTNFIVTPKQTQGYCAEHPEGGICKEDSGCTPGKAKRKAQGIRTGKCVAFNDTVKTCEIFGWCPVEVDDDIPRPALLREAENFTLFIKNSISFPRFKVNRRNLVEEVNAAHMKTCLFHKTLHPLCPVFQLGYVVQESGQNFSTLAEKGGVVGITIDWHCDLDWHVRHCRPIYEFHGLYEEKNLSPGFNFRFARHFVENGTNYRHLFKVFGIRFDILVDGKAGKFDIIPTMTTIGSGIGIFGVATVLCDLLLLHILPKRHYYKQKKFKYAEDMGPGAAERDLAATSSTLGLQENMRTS
# Chain of UniProt P28223 (whole entry, looked up): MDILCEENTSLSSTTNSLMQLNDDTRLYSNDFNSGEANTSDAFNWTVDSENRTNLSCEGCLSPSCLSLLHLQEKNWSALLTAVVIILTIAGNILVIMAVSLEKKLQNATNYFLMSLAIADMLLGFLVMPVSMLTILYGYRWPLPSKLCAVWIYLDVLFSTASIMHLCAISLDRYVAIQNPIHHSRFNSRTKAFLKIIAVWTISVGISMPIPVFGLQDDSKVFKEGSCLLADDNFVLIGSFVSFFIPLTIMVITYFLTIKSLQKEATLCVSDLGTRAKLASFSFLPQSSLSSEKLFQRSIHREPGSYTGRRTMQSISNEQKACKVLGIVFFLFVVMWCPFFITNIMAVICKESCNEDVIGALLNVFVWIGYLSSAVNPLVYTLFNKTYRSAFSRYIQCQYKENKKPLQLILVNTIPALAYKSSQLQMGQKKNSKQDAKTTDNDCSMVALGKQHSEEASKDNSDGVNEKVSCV
# Chain of UniProt Q12791 (whole entry, looked up): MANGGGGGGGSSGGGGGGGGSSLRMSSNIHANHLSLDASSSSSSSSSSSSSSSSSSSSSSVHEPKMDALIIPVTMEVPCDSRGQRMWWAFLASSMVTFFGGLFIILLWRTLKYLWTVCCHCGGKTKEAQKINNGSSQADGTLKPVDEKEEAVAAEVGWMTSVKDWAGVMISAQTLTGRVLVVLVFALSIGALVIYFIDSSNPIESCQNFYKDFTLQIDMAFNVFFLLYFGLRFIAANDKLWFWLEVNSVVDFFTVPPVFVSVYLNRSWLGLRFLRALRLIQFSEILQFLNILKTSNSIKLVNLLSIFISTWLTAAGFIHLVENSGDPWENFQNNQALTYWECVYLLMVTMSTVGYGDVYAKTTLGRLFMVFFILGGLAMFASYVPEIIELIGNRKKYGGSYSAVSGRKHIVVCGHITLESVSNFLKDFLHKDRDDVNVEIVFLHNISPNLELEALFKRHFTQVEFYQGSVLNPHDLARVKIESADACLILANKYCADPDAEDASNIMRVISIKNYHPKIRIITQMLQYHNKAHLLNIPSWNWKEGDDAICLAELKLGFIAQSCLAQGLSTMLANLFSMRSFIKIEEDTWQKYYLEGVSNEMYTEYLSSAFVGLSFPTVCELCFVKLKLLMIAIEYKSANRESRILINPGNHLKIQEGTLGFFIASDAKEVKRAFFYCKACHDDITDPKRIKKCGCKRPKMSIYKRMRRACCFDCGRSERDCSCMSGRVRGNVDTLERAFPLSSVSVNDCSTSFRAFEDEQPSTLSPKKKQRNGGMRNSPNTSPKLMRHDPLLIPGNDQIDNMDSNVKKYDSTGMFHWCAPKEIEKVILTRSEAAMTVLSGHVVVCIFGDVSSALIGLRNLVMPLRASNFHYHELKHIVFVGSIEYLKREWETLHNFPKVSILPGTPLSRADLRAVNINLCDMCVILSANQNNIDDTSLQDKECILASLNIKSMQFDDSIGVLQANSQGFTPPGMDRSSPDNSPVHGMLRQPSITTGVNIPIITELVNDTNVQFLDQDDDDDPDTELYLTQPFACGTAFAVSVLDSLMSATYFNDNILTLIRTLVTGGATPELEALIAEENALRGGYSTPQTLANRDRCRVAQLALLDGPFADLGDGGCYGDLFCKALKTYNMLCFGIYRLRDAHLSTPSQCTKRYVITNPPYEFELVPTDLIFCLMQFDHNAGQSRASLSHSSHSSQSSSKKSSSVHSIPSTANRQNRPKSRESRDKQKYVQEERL
# Chain of UniProt Q6PCD5 (whole entry, looked up): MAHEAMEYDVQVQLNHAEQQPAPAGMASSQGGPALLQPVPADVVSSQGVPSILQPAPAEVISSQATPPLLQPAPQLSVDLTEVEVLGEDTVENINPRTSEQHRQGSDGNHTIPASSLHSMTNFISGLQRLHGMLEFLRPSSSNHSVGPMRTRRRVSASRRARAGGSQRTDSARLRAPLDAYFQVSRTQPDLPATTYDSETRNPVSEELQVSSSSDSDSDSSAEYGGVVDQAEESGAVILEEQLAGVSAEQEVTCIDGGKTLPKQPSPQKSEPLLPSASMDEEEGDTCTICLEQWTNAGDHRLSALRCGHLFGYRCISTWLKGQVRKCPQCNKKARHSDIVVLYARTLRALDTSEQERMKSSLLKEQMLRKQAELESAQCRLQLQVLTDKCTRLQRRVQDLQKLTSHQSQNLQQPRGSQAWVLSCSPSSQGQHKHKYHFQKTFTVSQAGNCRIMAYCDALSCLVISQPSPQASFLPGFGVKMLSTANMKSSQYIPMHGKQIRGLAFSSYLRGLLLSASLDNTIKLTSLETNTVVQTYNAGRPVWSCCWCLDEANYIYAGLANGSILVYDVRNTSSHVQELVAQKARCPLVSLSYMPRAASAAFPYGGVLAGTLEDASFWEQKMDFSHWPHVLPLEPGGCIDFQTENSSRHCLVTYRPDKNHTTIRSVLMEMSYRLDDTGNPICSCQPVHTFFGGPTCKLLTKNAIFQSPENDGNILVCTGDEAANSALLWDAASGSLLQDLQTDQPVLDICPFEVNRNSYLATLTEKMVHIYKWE
# Chain of UniProt O75582 (whole entry, looked up): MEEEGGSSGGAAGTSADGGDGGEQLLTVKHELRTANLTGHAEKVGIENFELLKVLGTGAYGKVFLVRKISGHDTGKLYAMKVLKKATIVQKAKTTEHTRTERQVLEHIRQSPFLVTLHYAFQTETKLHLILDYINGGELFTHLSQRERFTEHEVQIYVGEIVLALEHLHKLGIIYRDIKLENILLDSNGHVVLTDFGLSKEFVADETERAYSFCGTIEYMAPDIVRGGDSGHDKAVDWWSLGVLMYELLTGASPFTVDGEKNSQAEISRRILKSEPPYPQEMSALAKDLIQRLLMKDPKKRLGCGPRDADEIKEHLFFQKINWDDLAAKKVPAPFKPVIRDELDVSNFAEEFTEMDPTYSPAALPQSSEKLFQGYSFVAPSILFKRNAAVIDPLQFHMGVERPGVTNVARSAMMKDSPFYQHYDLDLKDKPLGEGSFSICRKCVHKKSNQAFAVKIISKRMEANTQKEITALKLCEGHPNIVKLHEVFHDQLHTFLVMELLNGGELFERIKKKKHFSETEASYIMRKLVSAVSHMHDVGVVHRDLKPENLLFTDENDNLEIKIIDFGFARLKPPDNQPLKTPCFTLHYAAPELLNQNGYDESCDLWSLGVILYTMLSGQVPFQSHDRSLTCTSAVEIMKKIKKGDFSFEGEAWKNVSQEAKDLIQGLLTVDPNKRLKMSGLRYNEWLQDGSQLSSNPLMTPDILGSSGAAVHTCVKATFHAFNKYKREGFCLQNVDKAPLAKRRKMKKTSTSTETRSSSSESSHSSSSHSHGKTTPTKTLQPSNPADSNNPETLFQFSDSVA
# Chain of UniProt Q9HBH9 (whole entry, looked up): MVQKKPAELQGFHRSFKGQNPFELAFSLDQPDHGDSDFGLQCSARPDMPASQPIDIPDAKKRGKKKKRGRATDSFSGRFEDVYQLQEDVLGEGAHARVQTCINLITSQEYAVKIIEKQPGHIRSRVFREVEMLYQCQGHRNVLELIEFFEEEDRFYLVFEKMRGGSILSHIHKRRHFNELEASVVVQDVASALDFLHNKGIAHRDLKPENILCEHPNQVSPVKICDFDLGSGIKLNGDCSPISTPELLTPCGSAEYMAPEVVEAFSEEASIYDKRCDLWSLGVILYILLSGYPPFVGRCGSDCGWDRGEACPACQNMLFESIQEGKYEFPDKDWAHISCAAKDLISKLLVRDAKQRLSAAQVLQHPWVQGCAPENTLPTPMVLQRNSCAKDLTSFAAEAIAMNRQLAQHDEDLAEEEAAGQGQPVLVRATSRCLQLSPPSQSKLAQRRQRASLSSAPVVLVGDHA
# Chain of UniProt O75897 (whole entry, looked up): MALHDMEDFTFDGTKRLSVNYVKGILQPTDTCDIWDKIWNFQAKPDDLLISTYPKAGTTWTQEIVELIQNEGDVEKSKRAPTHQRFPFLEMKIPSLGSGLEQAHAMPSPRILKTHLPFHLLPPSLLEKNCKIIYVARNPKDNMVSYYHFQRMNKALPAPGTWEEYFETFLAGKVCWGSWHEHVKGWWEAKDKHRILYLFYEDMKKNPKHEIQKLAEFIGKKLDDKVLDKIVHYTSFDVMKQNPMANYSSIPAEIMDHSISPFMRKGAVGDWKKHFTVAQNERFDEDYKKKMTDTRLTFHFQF
# Chain of UniProt P02763 (whole entry, looked up): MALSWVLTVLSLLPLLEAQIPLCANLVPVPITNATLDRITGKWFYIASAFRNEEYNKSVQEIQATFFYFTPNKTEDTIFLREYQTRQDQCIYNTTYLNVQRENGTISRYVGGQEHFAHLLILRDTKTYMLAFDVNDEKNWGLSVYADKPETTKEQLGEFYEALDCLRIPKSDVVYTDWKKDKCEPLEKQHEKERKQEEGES
SMILES,target,assay,system,conditions,how to read,measurement,value
CC1CCCN(C(=O)c2cc3ncccn3n2)C1 (stereo not shown),"Baculoviral IAP repeat-containing protein 3, BIR1 domain (BIRC3, Homo sapiens, UniProt Q13489)","binding, affinity selection mass spectrometry",,,reference: other proteins in batch,fold enrichment,1.36
Nc1nc2c(ncn2[C@@H]2O[C@H](COP(=O)(O)O)[C@@H](O)[C@H]2O)c(=O)[nH]1,GUK1,"enzyme activity, NADH-coupled",,"15.62 µM, added: KCl 150 mM",,reaction velocity,0.0328 µM/s and 0.0462 µM/s and 0.0302 µM/s
COc1cc(F)ccc1-c1ncnc(Nc2cccc(C[S@](C)(=N)=O)c2)n1,"RPS6KA5 (Homo sapiens, UniProt O75582)",kinase activity,,"10 µM, added: 10 µM ATP",,remaining activity,91%
OCc1ccc(-c2ccc(-c3ccc(CO)s3)o2)s1,"SULT1A1 (Homo sapiens, UniProt P50225)","substrate, colorimetric",,100 µM,reference: benzyl alcohol,relative sulfonation activity,< 2 fold
Nc1ncnc2c1ncn2[C@@H]1O[C@H](COP(=O)(O)CP(=O)(O)OP(=O)(O)O)[C@@H](O)[C@H]1O,"P2X purinoceptor 1 (P2RX1, Homo sapiens, UniProt P51575, R139A)",saturation binding,HEK293,103 nM,,specific binding,4220 CCPM and 4380 CCPM
CCN1CCC[C@H]1CNC(=O)c1c(O)c(Cl)cc(Cl)c1OC,"ADGRG2 (Homo sapiens, UniProt Q8IZP9)","β-arrestin recruitment, TANGO luminescence, measured: GPR64",,concentration not given,reference: basal luminescence,log2 fold change,0.647
Cc1ncsc1-c1ccc([C@H](C)NC(=O)[C@@H]2C[C@@H](O)CN2C(=O)[C@@H](NC(=O)CCCCCCCCC(=O)N(CCO)CCCOc2ccc3c(Nc4cc(CC(=O)Nc5cccc(F)c5)[nH]n4)ncnc3c2)C(C)(C)C)cc1,"Aurora kinase B (AURKB, Homo sapiens, UniProt Q96GD4)","protein degradation, degrader, Western blot",HPAF-II,24 h,,Dmax,89 ± 0.4%
Cc1ccc(N2CC(C(N)=O)CC2=O)cc1 (stereo not shown),"WD repeat-containing protein 55 (WDR55, Homo sapiens, UniProt Q9H6Y2)","binding, affinity selection mass spectrometry",,,reference: other proteins in batch,log fold enrichment,-0.00394
c1cncc(OC[C@@H]2CN(CCN3CCc4ccccc43)CCO2)c1,"HTR2A (Homo sapiens, UniProt P28223)",radioligand binding,,"concentration not given, added: [3H]ketanserin",,inhibition,61.8%
CN(C)Cc1ccc(-c2nc3cccc4c3n2CCNC4=O)cc1,"TDP1 (Homo sapiens, UniProt Q9NUW8)","binding, small molecule microarray",,added: AF647-labelled TDP1 1 µM,direction not given,Z score,3.54
CN(C)C(=O)C(CCN1CCC(O)(c2ccc(Cl)cc2)CC1)(c1ccccc1)c1ccccc1,"Calcium-activated potassium channel subunit alpha-1, with LRRC26 γ1 subunit (KCNMA1, Homo sapiens, UniProt Q12791)","BK channel conductance, inside-out patch clamp",,"BKα/γ1, Vm 60 mV, nominally Ca2+-free",,Hill coefficient,0.716 ± 0.08
O=S(=O)(O)C1CCNCC1,"SLC6A6 (Homo sapiens, UniProt P31641, Y138A)","binding, microscale thermophoresis",,"37.6 nM, fitted curve",higher = more binding,fraction bound,0
O=c1nc(SCc2cc(F)cc(C(F)(F)F)c2)nc(SCc2ccc3sccc3c2)[nH]1,"TOP2A (Homo sapiens, UniProt P11388)",DNA cleavage,,"125 µM, added: etoposide 50 µM",,linear DNA,21.8%
C[C@@H](O)CNC(C)(C)CC(=O)N[C@@H]1CCc2ccccc2N(Cc2ccc(-c3ccccc3-c3nn[nH]n3)cc2)C1=O,"GHSR (Homo sapiens, UniProt Q92847)",SRF-RE reporter gene,HEK293T,,,Emax,111 ± 2%
C[C@]12C[C@H](O)[C@H]3[C@@H](CCC4=CC(=O)CC[C@@]43C)[C@@H]1CC[C@@H]2C(=O)CO,"CYP11B2 (Homo sapiens, UniProt P19099, A320V)",substrate,,"100 µM, 37 °C, phospholipid vesicles",,"NADPH consumption rate, 18-hydroxylation",2.3 ± 0.1 min⁻¹
Cc1ncc(C[n+]2csc(CCOP(=O)(O)OP(=O)(O)O)c2C)c(N)n1,"T1, DNA:RNA riboswitch, DNA extensions (Arabidopsis thaliana)",optical tweezers,,direct,,binding,binds
Nc1nc2c(ncn2[C@@H]2O[C@@H]3COP(=O)(O)O[C@H]3[C@H]2O)c(=O)[nH]1,"Cone cGMP-gated channel (Morone saxatilis, UniProt Q3I0N1+Q3I0N2)","channel current, agonist, suction electrode",cone outer segments,"single cone shown, added: 2 µM Ca2+",,Hill coefficient,1.98
NCC(=O)O,"Sodium- and chloride-dependent neutral and basic amino acid transporter B(0+) (Slc6a14, Mus musculus, UniProt Q9JMA9)","transport, current and [14C] uptake",Xenopus oocytes,,,charge coupling,2.08 charges per glycine
Cc1cc(C)nc(NC(=S)N2CCN(Cc3ccc(C(F)(F)F)cc3)CC2)c1,"MAPK12 (Homo sapiens, UniProt P53778)","inhibitor, ADP-Glo",,concentration not given,,kinase activity,no effect
Cc1ccnc(OC[C@H]2CN(CC(=O)N3CCc4ccccc43)CCO2)c1,"HTR7 (Homo sapiens, UniProt P34969)",radioligand binding,,"concentration not given, added: [3H]LSD",,inhibition,-18.9%
CC(Oc1ccccc1)C(=O)NCc1ccccn1 (stereo not shown),"RFWD3 (Homo sapiens, UniProt Q6PCD5)","binding, affinity selection mass spectrometry",,,reference: other proteins in batch,log fold enrichment,-0.126
CCCC[C@H]1C(=O)N(C)[C@@H](CCCC)C(=O)N[C@@H](CCCCNC(=O)CN2CCN(CC(=O)O)CCN(CC(=O)O)CC2)C(=O)N[C@H](C(=O)NCC(N)=O)CSCC(=O)N[C@@H](Cc2ccc(O)cc2)C(=O)N(C)[C@@H](C)C(=O)N[C@@H](CC(N)=O)C(=O)N2CCC[C@H]2C(=O)N[C@@H](Cc2c[nH]cn2)C(=O)N[C@@H](CCC(=O)O)C(=O)N2C[C@H](O)C[C@H]2C(=O)N[C@@H](Cc2c[nH]c3ccccc23)C(=O)N[C@@H](CO)C(=O)N[C@@H](Cc2cn(CC(=O)O)c3ccccc23)C(=O)N1C [gallium-68 labelled],"CD274 (Homo sapiens, UniProt Q9NZQ7)",,C6661,added: anti-PD-L1 antibody block,,cell uptake,0.44%
Cc1n[nH]c2ccc(-c3cc(OC[C@@H](N)Cc4ccccc4)cnc3-c3ccoc3)cc12,"Protein kinase C-like 1 (Candida albicans, UniProt P43057)","kinase binding, competitor, MIB/MS competition, measured: PKC1",Candida albicans cell lysate,100 nM,reference: DMSO,log2 fold change,-0.235
CCS(=O)(=O)N1CC(CC#N)(n2cc(-c3ncnc4[nH]ccc34)cn2)C1,"ORM1 (Homo sapiens, UniProt P02763)",,,added: Mg^2+,,change in binding constant,-56.8%
C=CC(=O)N1CCC(COCC(=O)N2CCN(c3nc(-c4cnc(N)nc4C(F)F)nc(N4CCOC[C@@H]4C)n3)CC2)CC1,"MKNK2 (Homo sapiens, UniProt Q9HBH9)",KINOMEscan,,1 µM,,remaining binding,84%
CC(=O)NCCc1c[nH]c2ccc(O)cc12,"SULT1C4 (Homo sapiens, UniProt O75897)","sulfation, substrate",,"10 µM, pH 7.0, substrate 1",,Vmax,32.4 ± 4.63 nmol/min/mg
Clc1cncc(OC[C@H]2CN(CCN3CCc4ccccc43)CCO2)c1,"HTR2C (Homo sapiens, UniProt P28335)",radioligand binding,,"concentration not given, added: [3H]mesulergine",,inhibition,-14.6%
Cc1cc(OCC(=O)NC(C)C)cc(C)c1Cl,"SLC6A19 (Homo sapiens, UniProt Q695T7)","inhibitor, FLIPR membrane potential",CHO-BC cells,"30 µM, added: L-leucine 1.5 mM",reference: cinromide,activity,38 ± 14%
[Cl-].[K+],GUK1,"enzyme activity, NADH-coupled",,150 mM,,reaction velocity,-0.024 µM/s and -0.0215 µM/s and -0.0362 µM/s
C[C@]12CC[C@@H]3c4ccc(O)cc4CC[C@H]3[C@@H]1CC[C@@H]2O,"UGT1A1 (Homo sapiens, UniProt P22309)","glucuronidation, substrate",human liver microsomes,"pH 7.5, 37 °C",,Vmax,136 ± 4 pmol/min/mg protein
Nc1ccc2cc3ccc(N)cc3nc2c1,"Chymotrypsinogen A, activated (alpha-chymotrypsin) (Bos taurus, UniProt P00766)",isothermal titration calorimetry,,"25 °C, added: 0.5 M TMAO",,binding Gibbs energy,-5.593 ± 0.0239 kcal/mol
CC[C@H](C)[C@H](NC(=O)[C@H](CC(=O)O)NC(=O)[C@H](CCC(=O)O)NC(=O)[C@@H](N)CC(N)=O)C(=O)N[C@@H](CC(=O)O)C(=O)N[C@@H](CCC(N)=O)C(=O)N[C@@H](CCSC)C(=O)N[C@@H](Cc1ccccc1)C(=O)N[C@@H](CO)C(=O)N[C@H](C(=O)N[C@@H](CC(C)C)C(=O)N[C@@H](CC(C)C)C(=O)NCC(=O)N[C@@H](CCC(=O)O)C(=O)N[C@@H](CCSC)C(=O)N[C@@H](CC(=O)O)C(=O)N[C@@H](CC(C)C)C(=O)N[C@@H](CC(C)C)C(=O)N[C@H](C(=O)N[C@@H](CCC(N)=O)C(=O)N[C@@H](CO)C(=O)O)[C@@H](C)O)[C@@H](C)O,"Talin-1, with integrin beta3 (Tln1, Mus musculus, UniProt P26039)","inhibitor, fluorescence polarization",,,,β3-talin head domain interaction,no inhibition
CN(CCO)c1ccc(/C=C(\C#N)c2ccc(C#N)cc2)cc1,"T2, RNA aptamer","fluorescence titration, Hill fit",,apparent,,Kd,294 nM
Nc1ncnc2c1ncn2[C@@H]1O[C@H](COP(=O)(O)OP(=O)(O)OP(=O)(O)O)[C@@H](O)[C@H]1O,"Hexokinase-3 (HK3, Homo sapiens, UniProt P52790, R807A)",substrate,,"mutant R807A, added: glucose 0.5 mM",,Km,2200 ± 400 µM

# Repeated from above:
SMILES,target,assay,system,conditions,how to read,measurement,value
O=S(=O)(O)C1CCNCC1,"SLC6A6 (Homo sapiens, UniProt P31641, Y138A)","binding, microscale thermophoresis",,"37.6 nM, fitted curve",higher = more binding,fraction bound,0
Nc1ncnc2c1ncn2[C@@H]1O[C@H](COP(=O)(O)OP(=O)(O)OP(=O)(O)O)[C@@H](O)[C@H]1O,"Hexokinase-3 (HK3, Homo sapiens, UniProt P52790, R807A)",substrate,,"mutant R807A, added: glucose 0.5 mM",,Km,2200 ± 400 µM
C=CC(=O)N1CCC(COCC(=O)N2CCN(c3nc(-c4cnc(N)nc4C(F)F)nc(N4CCOC[C@@H]4C)n3)CC2)CC1,"MKNK2 (Homo sapiens, UniProt Q9HBH9)",KINOMEscan,,1 µM,,remaining binding,84%
